Measurements of several laboratories.
Numbered parts are unrelated; each lists some results of a single study. Substitutions count along the parent as printed.

Study 1 — technique: RNA Bind-n-Seq; form: RNA; medium: in vitro; concentration: 365 nM; relative to: no-protein control; direction: higher = stronger binding
Target: RNA binding protein fox-1 homolog 2, RRM domain, GST-SBP tag (RBFOX2, Homo sapiens, UniProt O43251-10, residues 100-194)
Setting: natural RNA segment, single round, ends assumed
All sequences stand within: GGGAGUUCUACAGUCCGACGAUC … UGGAAUUCUCGGGUGCCAA
Target sequence (chain): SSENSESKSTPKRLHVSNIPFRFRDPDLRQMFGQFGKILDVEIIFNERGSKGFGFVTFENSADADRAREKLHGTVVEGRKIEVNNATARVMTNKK
Oligonucleotide	RBNS enrichment (R)
CUUUUCCCACCAACUCCUAUUUCCCUACCAACCAAGGAGCCUCCAGAAGGAAAGGAGGAAGAAAUGUUUUCUUAGGGGAAUUCGCUAGGUUUUAACGAUUUGUUUCUCCU	0.449
UGGGCUACAGAGGAGCAAGCAAGCACUUCAGACUGACCAAAGGUUGUGGUGGCCCACAUGGCUCUGCCCAGUGUCCUGUGCUUUGCCACAGUCCUCUGGGGUCAGUGUCU	0.176
AAGUGUGAGAUUUCUGCUUAAGAGAAGUUGUGAAAUUGCACUCCCAUCGAGGGUUCUGAGAGUGACUUUUCUCUGUUGGGUGCUUUCUUUGCCACCCUCAUAGCUUUCCC	0.293
AAGUUUAUGUGGUACAGACAUGCCCUUGAGGUUGGUGGAAAAUAAAAAACAAGACCCUUCACACAGUUAGCUCAGGCCAUUUUAAGGACGAAGGCUCUGCUGGUCCUCCU	0.218
GACGUGCCCUGUUGUAUCCUGACAAACCUUAAGCAGUUGAAACCAGUGUCGGCUAAGGCCUUCCUAGCUCUGGAGGUGACAGGGGAACCUCCAGGUGGAGGAACCACACG	0.287
CAUCGAGGGUUCUGAGAGUGACUUUUCUCUGUUGGGUGCUUUCUUUGCCACCCUCAUAGCUUUCCCACAUCUUGUAGGUGCCAUAUACAAUGCCUUAAUGUAAUUAGCCU	0.289
ACCUAGGCAUAGAAACCAGUCUCUUUGGUUUGUUUGUAUUAUGUUCUACAAUAUUAAAGAUCUAAAUACAAAGGAUAUAAUACAGUCUUGAAUCUAAAGUAAUUUGCUAA	0.444

Study 2 — technique: protein-binding microarray; form: double-stranded DNA, one strand shown; medium: in vitro; concentration: 250 nM; setting: 60-bp whole probe; added: salmon DNA 0.4 mg/ml; relative to: random background probes; direction: higher = stronger binding; all sequences stand within: GCCTAGCAC … GTCTTGATTCGCTTGACGCTGCTG
Target: Interferon regulatory factor 5, full length, phosphomimetic (IRF5, Homo sapiens, UniProt Q13568-2, residues 1-514, K96S/S451D/S453D/S456D/S462D)
Oligonucleotide	log fluorescence [z-score]
TCATTTTTCCCTCTGGAAAAGTGCTAG	1.05
TCAAGTATGTTCACTATTACTGTGCTA	0.417
TTAGGTCTCGGTATCGGGTAGTGCTAG	2.06
TTAGGTTTCGGGTATCGCTTAGTGCTA	9.35
TTAGGTCTCCTAATGCTTTAGTGCTAG	0.00449
GACGACATCAGTATCGAGACGTGCTAG	1.8
TTAGATATCAGTATCGACTAGTGCTAG	4.79
TTAGAACTGAGGCTGGATTAGTGCTAG	-0.398

Study 3 — target: CCND3, cyclin fold, Cln2 fusion (human); technique: yeast growth competition, sequencing; medium: yeast; setting: weak parent motif; relative to: not given; direction: higher = stronger binding
Starting sequence: CDC6 docking peptide (human); TLKGRRLVFDNQL
Change	normalised enrichment score
MLKGRRLVFDNQL [T1M]	0.0815
TLYGRRLVFDNQL [K3Y]	0.157
GLKGRRLVFDNQL [T1G]	0.183
TLKMRRLVFDNQL [G4M]	0.202
TLKGRRYVFDNQL [L7Y]	0.107
TLKGRRAVFDNQL [L7A]	0.0863
TLKGRCLVFDNQL [R6C]	0.152

Mixed results
Molecule	target	assay	test system	conditions	how to read	endpoint	value
PhoQ, residues 284 288 289 292 302 303 SNSSNI	PhoP, residues 12 14 15 18 19 LFHKL (Escherichia coli, UniProt P23836)	Sort-seq, item: YFP reporter	E. coli	PhoQ-PhoP variant library, added: 10 µM Mg2+	relative to: high Mg2+ state, higher = stronger signaling	fold induction	2.77

For quick reference, copied from above (study 2):
Oligonucleotide	log fluorescence [z-score]
TTAGGTCTCGGTATCGGGTAGTGCTAG	2.06
TTAGGTTTCGGGTATCGCTTAGTGCTA	9.35
TTAGGTCTCCTAATGCTTTAGTGCTAG	0.00449
